Results of several laboratories.
Protocols differ between the studies behind these lines. ± gives the spread as reported.
T1: ssDNA, aptamer; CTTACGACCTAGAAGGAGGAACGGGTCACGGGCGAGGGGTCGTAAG
Sequence of UniProt Q01105 (whole entry, unmodified, looked up): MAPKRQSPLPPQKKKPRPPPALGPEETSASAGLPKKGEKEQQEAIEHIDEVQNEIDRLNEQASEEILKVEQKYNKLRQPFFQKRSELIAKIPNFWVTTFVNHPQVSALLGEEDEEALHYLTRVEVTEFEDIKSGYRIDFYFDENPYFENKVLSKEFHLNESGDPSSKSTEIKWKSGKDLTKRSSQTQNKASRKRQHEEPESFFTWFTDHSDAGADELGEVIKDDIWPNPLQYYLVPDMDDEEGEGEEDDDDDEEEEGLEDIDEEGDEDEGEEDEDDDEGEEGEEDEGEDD
Sequence of UniProt Q9UBN7 (whole entry, looked up): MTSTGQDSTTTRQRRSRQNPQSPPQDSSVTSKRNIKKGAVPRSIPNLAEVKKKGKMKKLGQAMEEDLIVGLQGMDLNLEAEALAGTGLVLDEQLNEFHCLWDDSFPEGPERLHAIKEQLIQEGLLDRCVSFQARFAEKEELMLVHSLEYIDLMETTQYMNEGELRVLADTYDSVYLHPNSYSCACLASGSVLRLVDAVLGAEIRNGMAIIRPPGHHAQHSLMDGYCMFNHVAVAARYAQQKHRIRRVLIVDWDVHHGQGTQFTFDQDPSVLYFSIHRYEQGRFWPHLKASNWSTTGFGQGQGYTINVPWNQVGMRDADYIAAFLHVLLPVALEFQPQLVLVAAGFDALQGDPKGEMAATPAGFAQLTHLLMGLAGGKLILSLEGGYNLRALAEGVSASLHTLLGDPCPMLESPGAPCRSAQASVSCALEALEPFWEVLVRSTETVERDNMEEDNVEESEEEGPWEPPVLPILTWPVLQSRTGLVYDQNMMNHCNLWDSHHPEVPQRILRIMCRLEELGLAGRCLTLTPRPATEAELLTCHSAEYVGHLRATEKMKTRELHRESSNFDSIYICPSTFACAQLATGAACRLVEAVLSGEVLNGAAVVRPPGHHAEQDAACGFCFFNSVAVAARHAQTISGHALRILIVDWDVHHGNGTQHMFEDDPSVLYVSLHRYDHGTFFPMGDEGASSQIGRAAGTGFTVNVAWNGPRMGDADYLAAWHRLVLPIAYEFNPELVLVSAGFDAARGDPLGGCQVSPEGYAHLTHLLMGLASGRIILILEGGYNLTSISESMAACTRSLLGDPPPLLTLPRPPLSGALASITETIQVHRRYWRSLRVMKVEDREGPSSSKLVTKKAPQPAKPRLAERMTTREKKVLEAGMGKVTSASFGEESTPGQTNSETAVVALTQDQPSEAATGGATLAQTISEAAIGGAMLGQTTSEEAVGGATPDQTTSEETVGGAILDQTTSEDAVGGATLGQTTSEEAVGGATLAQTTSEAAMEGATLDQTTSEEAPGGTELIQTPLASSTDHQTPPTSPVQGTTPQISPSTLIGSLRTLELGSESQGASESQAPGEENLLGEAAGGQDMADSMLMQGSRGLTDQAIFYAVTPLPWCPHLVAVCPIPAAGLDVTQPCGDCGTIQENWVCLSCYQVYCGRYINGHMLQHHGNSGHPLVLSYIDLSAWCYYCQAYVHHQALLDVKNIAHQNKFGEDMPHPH
Sequence of UniProt P00519 (whole entry, unmodified, looked up): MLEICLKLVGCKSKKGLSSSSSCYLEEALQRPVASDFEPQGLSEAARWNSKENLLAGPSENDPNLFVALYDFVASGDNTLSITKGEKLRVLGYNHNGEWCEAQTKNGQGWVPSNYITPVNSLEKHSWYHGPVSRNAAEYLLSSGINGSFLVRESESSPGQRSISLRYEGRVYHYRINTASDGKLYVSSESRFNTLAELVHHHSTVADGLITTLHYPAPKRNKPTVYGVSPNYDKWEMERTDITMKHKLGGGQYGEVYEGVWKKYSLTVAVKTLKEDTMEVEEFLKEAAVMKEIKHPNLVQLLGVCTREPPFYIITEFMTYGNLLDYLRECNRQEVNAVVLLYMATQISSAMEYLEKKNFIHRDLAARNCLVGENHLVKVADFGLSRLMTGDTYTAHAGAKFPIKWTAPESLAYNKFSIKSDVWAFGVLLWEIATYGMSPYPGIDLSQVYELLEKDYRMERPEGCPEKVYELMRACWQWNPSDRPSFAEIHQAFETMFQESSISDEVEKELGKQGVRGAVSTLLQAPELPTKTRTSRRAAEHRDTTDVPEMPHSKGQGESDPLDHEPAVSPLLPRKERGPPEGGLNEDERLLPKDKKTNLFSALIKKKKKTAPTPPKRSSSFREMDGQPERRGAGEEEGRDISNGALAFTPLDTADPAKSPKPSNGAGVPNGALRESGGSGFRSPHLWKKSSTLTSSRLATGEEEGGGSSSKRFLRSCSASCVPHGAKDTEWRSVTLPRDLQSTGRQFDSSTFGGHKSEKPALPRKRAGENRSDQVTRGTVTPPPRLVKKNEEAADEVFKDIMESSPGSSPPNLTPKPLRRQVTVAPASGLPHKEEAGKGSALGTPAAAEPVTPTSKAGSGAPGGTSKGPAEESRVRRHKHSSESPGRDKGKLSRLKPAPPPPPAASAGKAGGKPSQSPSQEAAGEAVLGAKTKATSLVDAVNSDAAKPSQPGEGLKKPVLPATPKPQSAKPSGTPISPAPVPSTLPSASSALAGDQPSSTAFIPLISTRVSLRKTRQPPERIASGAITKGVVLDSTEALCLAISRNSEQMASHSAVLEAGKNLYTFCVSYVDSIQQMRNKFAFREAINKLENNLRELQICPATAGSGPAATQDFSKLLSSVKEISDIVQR
Sequence of UniProt P24534 (whole entry, looked up): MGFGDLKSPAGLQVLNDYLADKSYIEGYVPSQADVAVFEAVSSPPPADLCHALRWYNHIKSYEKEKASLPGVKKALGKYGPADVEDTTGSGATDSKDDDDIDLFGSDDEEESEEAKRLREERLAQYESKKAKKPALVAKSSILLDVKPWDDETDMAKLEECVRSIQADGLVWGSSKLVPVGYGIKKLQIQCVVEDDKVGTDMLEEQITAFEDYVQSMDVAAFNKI
Sequence of UniProt Q60893 (whole entry, looked up): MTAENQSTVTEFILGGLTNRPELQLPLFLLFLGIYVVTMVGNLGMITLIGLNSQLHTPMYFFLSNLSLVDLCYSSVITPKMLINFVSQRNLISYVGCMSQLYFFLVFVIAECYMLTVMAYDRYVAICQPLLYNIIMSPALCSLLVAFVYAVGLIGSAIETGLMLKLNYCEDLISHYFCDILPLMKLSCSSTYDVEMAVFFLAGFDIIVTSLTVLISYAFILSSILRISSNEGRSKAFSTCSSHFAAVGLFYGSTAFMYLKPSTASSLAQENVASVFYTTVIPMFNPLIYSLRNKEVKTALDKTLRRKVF
Sequence of UniProt Q16774 (whole entry, unmodified, looked up): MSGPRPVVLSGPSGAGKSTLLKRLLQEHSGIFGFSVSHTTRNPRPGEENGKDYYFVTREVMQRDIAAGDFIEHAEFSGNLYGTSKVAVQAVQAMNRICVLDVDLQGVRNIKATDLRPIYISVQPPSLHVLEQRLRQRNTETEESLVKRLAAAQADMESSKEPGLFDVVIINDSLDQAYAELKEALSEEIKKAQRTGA
Sequence of UniProt P14618 (whole entry, looked up): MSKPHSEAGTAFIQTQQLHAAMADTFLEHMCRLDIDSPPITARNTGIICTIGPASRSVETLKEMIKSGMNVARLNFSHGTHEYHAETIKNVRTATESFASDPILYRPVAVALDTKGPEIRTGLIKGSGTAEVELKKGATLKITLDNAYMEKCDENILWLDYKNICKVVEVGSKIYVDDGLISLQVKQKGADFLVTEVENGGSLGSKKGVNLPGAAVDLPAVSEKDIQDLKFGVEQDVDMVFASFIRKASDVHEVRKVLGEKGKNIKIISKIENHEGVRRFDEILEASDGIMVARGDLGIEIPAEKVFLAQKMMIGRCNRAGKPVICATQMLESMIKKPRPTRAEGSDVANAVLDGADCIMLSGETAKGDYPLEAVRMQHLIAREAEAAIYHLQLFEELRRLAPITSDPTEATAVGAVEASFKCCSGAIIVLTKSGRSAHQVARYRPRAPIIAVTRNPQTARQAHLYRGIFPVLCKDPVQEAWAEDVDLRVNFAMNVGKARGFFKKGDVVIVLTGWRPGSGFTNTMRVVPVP
Sequence of UniProt P54292 (whole entry, looked up): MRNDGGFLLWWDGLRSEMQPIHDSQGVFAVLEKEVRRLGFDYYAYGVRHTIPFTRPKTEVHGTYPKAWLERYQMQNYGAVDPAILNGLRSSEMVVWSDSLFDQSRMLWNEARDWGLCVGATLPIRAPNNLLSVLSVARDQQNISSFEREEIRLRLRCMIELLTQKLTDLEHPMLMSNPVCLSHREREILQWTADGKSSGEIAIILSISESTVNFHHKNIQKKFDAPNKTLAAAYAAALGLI
Sequence of UniProt P51810 (whole entry, looked up): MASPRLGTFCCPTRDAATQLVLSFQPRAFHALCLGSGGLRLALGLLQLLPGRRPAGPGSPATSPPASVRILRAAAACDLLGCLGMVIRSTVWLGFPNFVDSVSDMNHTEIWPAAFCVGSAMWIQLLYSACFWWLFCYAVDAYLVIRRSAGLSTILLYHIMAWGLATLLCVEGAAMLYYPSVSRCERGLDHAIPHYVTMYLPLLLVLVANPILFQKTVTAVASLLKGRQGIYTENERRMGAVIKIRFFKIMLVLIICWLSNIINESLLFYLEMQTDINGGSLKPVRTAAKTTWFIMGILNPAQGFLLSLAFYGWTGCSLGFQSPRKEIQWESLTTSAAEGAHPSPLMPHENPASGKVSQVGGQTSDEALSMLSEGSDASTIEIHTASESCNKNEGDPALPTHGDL
Sequence of UniProt P00698 (whole entry, looked up): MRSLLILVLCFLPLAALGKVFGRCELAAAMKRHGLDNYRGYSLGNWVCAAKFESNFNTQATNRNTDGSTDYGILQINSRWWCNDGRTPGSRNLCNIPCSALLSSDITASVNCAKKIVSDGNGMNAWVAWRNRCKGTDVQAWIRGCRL

CC(=O)c1ccc(C)cc1C
Emax (Or8a1 (Mus musculus, UniProt Q60893); odorant-evoked current, agonist; isolated olfactory neurons; baseline: acetophenone saturated response): 102 ± 2%

O=C1C=CC(=O)c2c1ccc1ccccc21
fold change (Aryl hydrocarbon receptor (Danio rerio, UniProt Q9YGV3); reporter gene, agonist, luciferase reporter; ZF-4; 370.37 µM; baseline: vehicle control): 18.3

Nc1ncnc2c1ncn2[C@@H]1O[C@H](COP(=O)(O)OP(=O)(O)O)[C@@H](O)[C@H]1O
-TΔS (GUK1 (Homo sapiens, UniProt Q16774, R137A); binding, ITC; together with: GMP): 1.97 kcal/mol

CCN1CCC[C@H]1CNC(=O)c1c(O)c(Cl)cc(Cl)c1OC
log2 fold change (GPR143 (Homo sapiens, UniProt P51810); β-arrestin recruitment, TANGO luminescence; concentration not given; baseline: basal luminescence): 0.087

COc1cc(C#CC(=O)c2ccccc2OC)ccc1O
binding (rhlR (Pseudomonas aeruginosa, UniProt P54292); receptor binding; concentration not given, 1.5 h, together with: BHL at 1:1 ratio; baseline: control): 52%

Nc1ncnc2c1ncn2[C@@H]1O[C@H](COP(=O)(O)OP(=O)(O)OP(=O)(O)O)[C@@H](O)[C@H]1O
Kd (T1, ssDNA, aptamer; ITC): 630 nM

C[C@H](N)C(=O)O
number of binding sites (Lysozyme C (LYZ, Gallus gallus, UniProt P00698); intrinsic fluorescence; concentration not given, pH 6.9, 25 °C, lysozyme 10 µM): 0.92 ± 0.03

C=CC(=O)N1CCC[C@@H](n2nc(-c3ccc(Oc4ccccc4)cc3)c3c(N)ncnc32)C1
remaining activity (Elongation factor 1-beta (Homo sapiens, UniProt P24534); 0.1 µM): 28.4%

CCCCCCCCCCCCC/C=C/[C@@H](O)[C@H](CO)NC(=O)CCCCCCCCCCCCCCCCCCCCC
bound endogenous lipid (Protein SET (SET, Homo sapiens, UniProt Q01105); lipid binding, GFP pull-down LC-MS/MS; A549 overexpressing GFP-tagged protein; ER-targeted construct, unit not given; baseline: vector-transfected cells): 1

O=C(CNc1cccc2c1C(=O)N(C1CCC(=O)NC1=O)C2=O)NCCCCCCN1CCc2c(c3ccccc3n2Cc2ccc(C(=O)NO)cc2)C1 (stereo not shown)
degradation (HDAC6 (Homo sapiens, UniProt Q9UBN7); degrader, western blot; MM1.S; 1 µM, 24 h): 95%

CCCCCCCCCCCCC/C=C/[C@@H](O)[C@H](CO)NC(=O)CCCCCCCCCCCCCCCCCCCCCCCCC
bound endogenous lipid (Protein SET (SET, Homo sapiens, UniProt Q01105, Y135C); lipid binding, GFP pull-down LC-MS/MS; A549 overexpressing GFP-tagged protein; unit not given; baseline: vector-transfected cells): 6.3

O=C(COP(=O)(O)O)[C@@H](O)[C@H](O)[C@H](O)COP(=O)(O)O
concentration reversing inhibition completely (Pyruvate kinase PKM (PKM, Homo sapiens, UniProt P14618); pyruvate kinase activity, activator; RKO cell lysate; together with: AIM): 394 ± 122 nM

CN(CCCC(F)(F)F)c1nccc(-c2cnn3ncccc23)n1
remaining binding (ABL1 (Homo sapiens, UniProt P00519, H396P); KINOMEscan; 1 µM; baseline: control): 76%

CC[C@@H]1[C@H](F)C(=O)N[C@@H]1COc1nccc2cc(C(N)=O)c(OC)cc12
inhibition (NEK9 (Homo sapiens, UniProt Q8TD19); ATP-site probe binding, ActivX profiling; THP-1 cell lysate; 0.04 mM, Lys2 site): 5%

Oc1ccccc1-c1n[nH]cc1-c1ccnc2ccccc12
log2 fold change (Serine/threonine-protein kinase ATG1 (ATG1, Candida albicans, UniProt Q5A649); kinase binding, MIB/MS competition; Candida albicans lysate; 1 µM; baseline: DMSO, negative = stronger binding): 0.06

CCCCC[S+]([O-])c1n[nH]c(N)n1 (stereo not shown)
log fold enrichment (Huntingtin (HTT, Homo sapiens, UniProt P42858); binding, affinity selection mass spectrometry; baseline: other proteins in batch): -0.0585

Some of these lines once more:
CCCCCCCCCCCCC/C=C/[C@@H](O)[C@H](CO)NC(=O)CCCCCCCCCCCCCCCCCCCCC
bound endogenous lipid (Protein SET (SET, Homo sapiens, UniProt Q01105); lipid binding, GFP pull-down LC-MS/MS; A549 overexpressing GFP-tagged protein; ER-targeted construct, unit not given; baseline: vector-transfected cells): 1

O=C(CNc1cccc2c1C(=O)N(C1CCC(=O)NC1=O)C2=O)NCCCCCCN1CCc2c(c3ccccc3n2Cc2ccc(C(=O)NO)cc2)C1 (stereo not shown)
degradation (HDAC6 (Homo sapiens, UniProt Q9UBN7); degrader, western blot; MM1.S; 1 µM, 24 h): 95%
